# Measurements of several laboratories.
# Each line is one published result; not all experiments were run side by side. Several values in a cell are separate wells, animals, samples, runs or records.
# Target: Serine/threonine-protein kinase haspin (HASPIN, Homo sapiens, UniProt Q8TF76)
Structure (SMILES),test,setting,scale,endpoint,result
CCN1CCN(Cc2ccc(C(=O)Nc3ccc(C)c(NCc4cnc5[nH]ccc5c4OC)c3)cc2C(F)(F)F)CC1,"binding, competition with immobilised ligand",1 µM,,remaining binding,23%
COc1cc(Nc2nccc(-c3cnn4nc(OC)ccc34)n2)cc(C(F)(F)F)c1,"binding, competition with immobilised ligand",1 µM,,remaining binding,77%
Cc1cccc(O[C@H]2CCC[C@@H](C(C)CNCc3ccncc3)C2)c1 (relative stereo),"enzyme activity, inhibitor",10 µM,,inhibition,1%
C=CC(=O)N1CCc2ccc(-n3c(=O)ccc4cnc5ccc(-c6cnn(C)c6)cc5c43)cc21,KINOMEscan,1 µM,reference: DMSO control,remaining binding,100%
CC(C)=CC1OC(C)(C)C2C=C3C(=O)C(Cl)=CC(O)C3C3C(O)C4OC4C(=O)C132 (stereo not drawn),"cell-free assay, competition with immobilised ligand",10 µM,,remaining binding,73%
C=CC(=O)Nc1cccc(-c2cnc3[nH]cc(C(=O)NC(C)(C)C)c3n2)c1,kinase activity,0.1 µM,,inhibition,5% and 7%
COc1ccc(NC(=O)Nc2ccc3c(c2)C(=O)N(C(C)CO)CC(C)C(CN(C)Cc2ccc4c(c2)OCO4)O3)cc1 (stereo not drawn),"kinase activity, KinaseProfiler","0.03 µM, species human",reference: control,remaining activity,94%
C=CC(=O)N1Cc2nc(-c3cc(-c4cc(Cl)cnc4Cl)c(F)cc3F)n(-c3ccncn3)c2C1,"cell-free assay, inhibitor",1 µM,,inhibition,5.6%
COc1c(Cl)cccc1Nc1c(-c2ccncc2C#C[C@@]2(C)CCCN2C(=O)/C=C/CN(C)C)[nH]c2c1C(=O)NCC2,"cell-free assay, competition with immobilised ligand",3 µM,,remaining binding,64%
Cc1cc(NC(=O)[C@H](O)c2cc(F)cc(F)c2)ccc1-c1cnc(N)c(C(=O)NC(C)C)c1,"binding, competition with immobilised ligand",10 µM,,remaining binding,30%
COc1c(OCCCN2CCOCC2)ccc2c1N=C(NC(=O)c1cnc(N)nc1)N1CCN=C21,"kinase activity, inhibitor",1 µM,reference: untreated control,remaining activity,119%
O=C=[N][Ru-4]123([n]4c5ccc(O)cc5c5c6c(c7cc(F)c[n+]1c7c54)C(=O)NC6=O)[S+]1CC[S+]2CC[S+]3CC1 (stereo not drawn),enzyme activity,"100 nM, human enzyme, with: 10 µM ATP",reference: untreated,remaining activity,79%
NC(=O)C[C@H]1CCc2sc3ncnc(O[C@H]4CC[C@H](N5CCOCC5)CC4)c3c21,"enzyme activity, inhibitor",10 µM,,inhibition,23%
CCn1cc(C(=O)O)c(=O)c2c(N)c(F)c(NC3CCCCC3)cc21,kinase activity,"0.1 µM, with: ATP at Km",,inhibition,-7.3%
O=C(Cc1ccc(OCc2ccccc2)cc1)NC1(C(=O)O)CCN(C(=O)c2ccc(-c3cccc(Cl)c3)cc2)CC1,"enzyme activity, inhibitor",10 µM,,activity vs control,126%

# For quick reference, copied from above:
Structure (SMILES),test,setting,scale,endpoint,result
Cc1cc(NC(=O)[C@H](O)c2cc(F)cc(F)c2)ccc1-c1cnc(N)c(C(=O)NC(C)C)c1,"binding, competition with immobilised ligand",10 µM,,remaining binding,30%
